# Measurements pooled from the literature.
# Every numbered part comes from another study and shows a few of its results, in no order.

# Study 1 — method: RNA Bind-n-Seq; molecule type: RNA; sample: in vitro; concentration: 365 nM; relative to: no-protein control; direction: higher = stronger binding
# Target: RNA binding protein fox-1 homolog 2, RRM domain, GST-SBP tag (RBFOX2, Homo sapiens, UniProt O43251-10, residues 100-194)
# Setting: natural RNA segment, single round, ends assumed
# Residues (chain): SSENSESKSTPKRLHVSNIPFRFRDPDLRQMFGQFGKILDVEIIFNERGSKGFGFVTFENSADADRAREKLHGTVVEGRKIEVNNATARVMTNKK
Strand,RBNS enrichment (R)
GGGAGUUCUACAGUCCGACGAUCAGUGUCCUUACACUACACUAUCCUGAGCUGGUUGGGGUGGGUAGAAGAAGGCAAGGACUGCCUGAGAGGCUGCGUUGACCCUACUGAUGUGGGUCUUGGGAUGGGCUGGAUGGAAUUCUCGGGUGCCAA,0.613
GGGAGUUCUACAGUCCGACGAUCAAACUAGACUUACAGGUAGGCUAGAUCAGAACGUUAACAUAUGAACCUGCAGAAAUCUGGUAAGACUUAAAUUCAGUGUGAGGAAUAACUCUAGUUCUCUCCUAUGAGCAUGGAAUUCUCGGGUGCCAA,0.828
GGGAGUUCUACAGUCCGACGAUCUACUGGAGCGUAGGGAUGAGAUAAAGGGAUGGAUCCGAGUCCUCCCGGGGCCUGCCAAGCUUUUCCAUACUUCCAGAUGAUGUUAUAAGGCAUUAAACAGCCACCAUCGCUGGAAUUCUCGGGUGCCAA,0.342
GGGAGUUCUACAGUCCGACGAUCCUCUCUCUGUCUCUCUCUGUCUCUCUCCCACUCCUUCUUUCCCCGAGGCCUUUGCCUGGGUCUGAAGGUCUUGGCCAGAGGAACACCAUCAUCAGUCAAGGGGUCUGGCCUGGAAUUCUCGGGUGCCAA,0.346
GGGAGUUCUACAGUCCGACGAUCCUUCUUGACAUUUAUCUUUAUAAAAAUUGUGUAUUUUAUUCCAACUUGUUAAACUAAGAGAAAAUGCUUUUGUUGUGUGUUCUUUUAACACAAACAUGGAGAAAAGCUGUUGGAAUUCUCGGGUGCCAA,0.385
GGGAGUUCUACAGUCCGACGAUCAUUGUUUGCUCUCCUGUCUGCCCCAGCUGUUUCUGGCAUAUUAUUUUUUGUUAGCUGAGACAUUGACAUGUUUGUAUUUAAUUCUCUUGAUAAAUUAGCUACUACAACCCUGGAAUUCUCGGGUGCCAA,1.01
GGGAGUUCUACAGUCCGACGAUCUGGAUUUCCUUUCGAAUGGCACUACCUUAGGGACAUUCUAGUAUUGCUUCUAUUGUUUGGGCAUUGUGGAUAAUGUACAGAUUUAAAAACAAAUCUUGUUGCUGAUUUGUUGGAAUUCUCGGGUGCCAA,0.452
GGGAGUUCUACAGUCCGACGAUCUGUAAUGGUAUAAUGCCCUUCCAUCACACAACAGGACACCACCCCAGUUUUGUUUUCUGGGUUUCUUCCCCCUUUGUAGGAAUCAGAUACCUUUUGUAGAAAAAAAUGGCUGGAAUUCUCGGGUGCCAA,0.821
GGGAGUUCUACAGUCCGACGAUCACAAAUAUGUCUGGUGGUGAAUGUGAAAGCUUUCCAUGAGAUGCCAAAGACCCUACAUCGAAUUUCCUUGAAGAAUGGUUCACGGGAUUUCUGUCCCUGAUGAAAGACUGUGGAAUUCUCGGGUGCCAA,0.375
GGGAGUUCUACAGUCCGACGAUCAUGGCGACUGGAAGACCAUUCCAACCUUGAAUCGUUACAGCGAUAGCAUAUCCUAUCCAACCAUACUAACGUGGACACCCACACCUCCCCUCAGAACUUCAAAAGGGCAAUGGAAUUCUCGGGUGCCAA,0.342
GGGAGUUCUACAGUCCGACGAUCGGGGAGCAGGCUCAGGCUUCCCCAGCCCCAUCCCAAGCCCUUCAGUGCCAAAAACAAAGAAAUGAAACACCGCCUCCAACCACCACAACCAUAUGGAGGGCAAUUCAGCCUGGAAUUCUCGGGUGCCAA,0.838
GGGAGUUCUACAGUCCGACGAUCUCUUUGCUAGUUGGAGUGCUUGUUUACUAAGCAUGUGCCGUCGUAGGUAUUAGUGCUAGUCUCAGAUAGGUGCUUCCCCUGAGGUGCAGGGGAAGACCAAAGUUUGCAACUGGAAUUCUCGGGUGCCAA,2.3

# Study 2 — method: RNA Bind-n-Seq; molecule type: RNA; sample: in vitro; concentration: 200 nM; setting: whole 134-nt RNA, ends assumed; with: 150 mM KCl; relative to: input library; direction: higher = stronger binding
# Target: Fragile X messenger ribonucleoprotein 1, C-terminal low-complexity region (Fmr1, Mus musculus, UniProt P35922)
Strand,log2 enrichment
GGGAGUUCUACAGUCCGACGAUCUCCUCAAGUCCUGUGCUACACAUCGUAUGUACCGAAUCGGAGGAGGGGAGGAAAGUAUUAUGUUACGCCGUUCGGAUCUGCACUUCCAGCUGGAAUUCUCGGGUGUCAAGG,-0.431
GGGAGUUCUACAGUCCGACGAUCAGUCCUGUGCUACACAUCGUAUGUACCGAAUCGGGGAAAAAGGAAAAAGGGAAAAAGGAAAGUAUUAUGUUACGCCGUUCGGAUCUGCACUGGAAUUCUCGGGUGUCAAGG,-0.417
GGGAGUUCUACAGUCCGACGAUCUAACUUUAGAGGAGGAUCUGAUGGAUAUGGCAGUGGACAUGGAUUUGGGGAUGGCUAUAAUGGGUAUGGAGGAGGACCUGGAGGUGGCAAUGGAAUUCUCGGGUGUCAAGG,0.236
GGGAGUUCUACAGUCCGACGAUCUGGGAGGUGGAUUUUGUUUAUUUUUUUAGCUCAUUUCCAGGGGUGGGAAUUUUUUUUUAAUAUGUGUCAUGAAUAAAGUUGUUUUUGCAAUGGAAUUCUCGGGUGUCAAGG,0.327
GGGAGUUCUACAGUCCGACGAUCUCCUGUGCUACACAUCGUAUGUACCGAAUCGGGUUUUUGGGUUUUUGGGAAAAAAAGGGAAAGUAUUAUGUUACGCCGUUCGGAUCUGCAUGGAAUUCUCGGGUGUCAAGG,-0.113
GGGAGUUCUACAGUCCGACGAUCUCUGUUUCCUCUGCCAGUGGCAAUGCAACACCUAACACUCCUGGGGAUGAGUCUCCCUGUGGUAUUAUUAUUCCUCAUGAAAACUCACCAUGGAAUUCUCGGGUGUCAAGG,0.38
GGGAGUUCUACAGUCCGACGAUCCACAGACAACACGCACCCACACAGACACAGAGGGAAGGGGUUGGGAUGGGGACAGGGUGCACAGCAGGGCGGGGUACGACCCCAGCCCCUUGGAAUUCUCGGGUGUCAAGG,1.26
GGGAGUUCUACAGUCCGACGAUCUCCUGUGCUACACAUCGUAUGUACCGAAUCGGUUUUUUGGGUUUUUUGGUUUUUUGGGGAAAGUAUUAUGUUACGCCGUUCGGAUCUGCAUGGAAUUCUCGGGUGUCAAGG,-0.299
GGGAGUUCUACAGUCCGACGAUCUCAGAGGAAUAUCCUUGACUUCCCCCAGCAUGUUUCCCCCUCCAAGGACAUCCGGACAGCCAGCACAGAGGCCGACAAGAAGCUCUCUGAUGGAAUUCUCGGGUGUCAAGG,-0.196
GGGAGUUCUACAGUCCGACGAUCCCUGUGCUACACAUCGUAUGUACCGAAUCAAACCCCCCCAAACCCCCCCAAACCCCCAAAAAAGUAUUAUGUUACGCCGUUCGGAUCUGCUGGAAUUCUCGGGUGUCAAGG,0.181
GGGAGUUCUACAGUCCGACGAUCCAAGUCCUGUGCUACACAUCGUAUGUACCGAAUCGGAAAGGAAAAAAAGGUUUGGAAAGUAUUAUGUUACGCCGUUCGGAUCUGCACUUCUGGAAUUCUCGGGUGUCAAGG,-1.2
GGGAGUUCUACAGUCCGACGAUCACCAUGCAGGUGGGCAUCUUUGGGAAGUGGGGCAAGGGGGGGAUAGGGAGGGGGGUAACACUUUGGGAACAGGUGGUCAAAGGUCGUUUCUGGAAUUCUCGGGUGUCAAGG,0.285
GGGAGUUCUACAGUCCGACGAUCUCCUGUGCUACACAUCGUAUGUACCGAAUCGGGCCCCCGGGGCCCCCGGGGCCCCCGGGAAAGUAUUAUGUUACGCCGUUCGGAUCUGCAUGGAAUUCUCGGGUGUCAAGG,-0.895
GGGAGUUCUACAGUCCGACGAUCCAAGUCCUGUGCUACACAUCGUAUGUACCGAAUCGGGAAAGGGUUUGGGAAAGGGAAAGUAUUAUGUUACGCCGUUCGGAUCUGCACUUCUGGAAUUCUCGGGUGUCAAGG,0.704

# Study 3 — method: aptamer microarray, sandwich; molecule type: DNA with 2'F-ANA; sample: in vitro; concentration: 200 nM; with: Cy3 exosite-II aptamer, 400 nM; direction: higher = stronger binding; strand: GGTTGGTGTGGTTGG
# Target: Prothrombin, mature alpha-thrombin (F2, Homo sapiens, UniProt P00734)
# Setting: whole 15-mer aptamer, many near background
Modification,mean fluorescence intensity [a.u.]
2'F-ANA at 2 3 4 8 10 12 15,302
2'F-ANA at 1 2 5 6 7 8 11 12 13 14,48.4
2'F-ANA at 2 4 5 6 8 9 10 14 15,51.6
2'F-ANA at 1 2 4 5 7 8 11 13 15,48
2'F-ANA at 1 5 7 8 9 10 12 13,43.1
2'F-ANA at 4 6 8 9 11 14,70.9
2'F-ANA at 1 3 5 7 8 9 10 13 15,49.1
2'F-ANA at 2 8 9 11 12,600
2'F-ANA at 1 2 6 7 9 10 11 12 13,58.6
2'F-ANA at 2 4 6 7 8 9 12 13,369
2'F-ANA at 2 3 4 5 7 8 9 11,85.2
2'F-ANA at 4 9 10 11,131
2'F-ANA at 2 3 4 9 12 13 15,610
2'F-ANA at 1 2 4 6 9 10 12 14,46
2'F-ANA at 2 3 7 9 11 13 14,391
2'F-ANA at 3 8 9 11 12 15,1190
2'F-ANA at 1 4 5 7 10 15,63.1
2'F-ANA at 7 8 9 10 13 14,131
2'F-ANA at 3 6 7 9 12 14 15,507
2'F-ANA at 2 3 4 8 9 12 15,724
2'F-ANA at 2 3 4 7 9,756
2'F-ANA at 4 6 7 13,199
2'F-ANA at 1 2 3 4 8 9 10 11 14,51.5

# Study 4 — method: universal PBM; molecule type: double-stranded DNA, one strand shown; sample: in vitro; concentration: not given; direction: higher = stronger binding
# Target: Sal-like protein 4, full length isoform B (SALL4, Homo sapiens, UniProt Q9UJQ4-2, residues 1-616)
# Setting: 8-mer, flanks averaged, mean of replicates
Strand,E-score
ATTTTCTG,0.154
AGGGCGAA,-0.139
CAATAAGG,0.115
AAGCCACC,-0.101
TAGACTAA,-0.0197
ACAGTCGA,-0.0966
ACGTGAGG,-0.0958
CACTGGAC,-0.101
AGCATTCG,-0.0862
CACTGGGA,-0.157
ACAGAGAT,0.12
TGCAGTAA,0.111
GCGAGCGC,-0.264
CAATGACA,0.184
ATACGTAC,0.148
GCCTAGCC,-0.215
AGACGTAG,0.0732
CCGCGTCA,-0.108
GAGTTAAC,0.0898
CAGTACCC,-0.111
AAAAGTAC,0.184
AACCTAGC,-0.0962
AGAGAATG,0.0363
ACGCGCTC,-0.247
CTAGGGCA,-0.177

# For quick reference, copied from above (study 4):
Strand,E-score
CAATGACA,0.184
ATACGTAC,0.148
GCCTAGCC,-0.215
AGACGTAG,0.0732
CCGCGTCA,-0.108
GAGTTAAC,0.0898
CAGTACCC,-0.111
AAAAGTAC,0.184
AACCTAGC,-0.0962
